Published values from different studies.
Each numbered part is a random draw from the data of one study; scales do not carry over between parts. Substitutions count along the parent as printed.

Set 1
Target: Sal-like protein 4, full length isoform A (SALL4, Homo sapiens, UniProt Q9UJQ4, residues 1-1053)
Sequence of UniProt Q9UJQ4 (whole entry, looked up): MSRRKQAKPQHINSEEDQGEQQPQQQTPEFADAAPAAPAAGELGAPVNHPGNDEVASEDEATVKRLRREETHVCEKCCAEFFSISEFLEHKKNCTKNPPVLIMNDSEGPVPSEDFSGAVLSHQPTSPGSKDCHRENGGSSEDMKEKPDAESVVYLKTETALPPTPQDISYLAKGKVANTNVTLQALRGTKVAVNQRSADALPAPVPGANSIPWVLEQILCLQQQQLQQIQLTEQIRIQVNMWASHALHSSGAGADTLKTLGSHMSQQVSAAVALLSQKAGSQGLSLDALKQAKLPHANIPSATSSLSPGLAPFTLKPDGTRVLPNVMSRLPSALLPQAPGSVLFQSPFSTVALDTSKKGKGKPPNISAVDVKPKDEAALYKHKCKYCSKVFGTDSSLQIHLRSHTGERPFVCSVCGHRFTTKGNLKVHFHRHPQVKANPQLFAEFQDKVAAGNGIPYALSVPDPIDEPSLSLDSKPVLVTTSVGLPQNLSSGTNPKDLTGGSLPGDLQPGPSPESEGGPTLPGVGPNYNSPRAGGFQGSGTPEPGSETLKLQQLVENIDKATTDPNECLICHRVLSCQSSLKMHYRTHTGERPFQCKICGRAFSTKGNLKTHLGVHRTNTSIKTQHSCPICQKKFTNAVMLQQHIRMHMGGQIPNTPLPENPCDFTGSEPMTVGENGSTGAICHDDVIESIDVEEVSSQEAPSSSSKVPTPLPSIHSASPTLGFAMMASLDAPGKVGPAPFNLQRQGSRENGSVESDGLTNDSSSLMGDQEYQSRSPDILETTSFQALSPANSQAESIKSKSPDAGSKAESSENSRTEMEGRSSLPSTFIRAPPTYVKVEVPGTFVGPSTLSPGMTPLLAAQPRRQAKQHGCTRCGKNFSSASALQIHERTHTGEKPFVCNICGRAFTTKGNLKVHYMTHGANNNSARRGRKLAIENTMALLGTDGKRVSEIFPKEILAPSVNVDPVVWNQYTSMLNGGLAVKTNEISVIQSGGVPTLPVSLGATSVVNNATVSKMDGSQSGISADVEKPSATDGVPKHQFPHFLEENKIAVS
Technique: universal PBM
Form: double-stranded DNA, one strand shown
Sample: in vitro
Concentration: 600 nM
Notes: 8-mer, flanks averaged, mean of replicates
Reading: higher = stronger binding
| Strand | E-score |
| --- | --- |
| TAATTGCA | 0.215 |
| ATTCAAAA | 0.227 |
| CAATTCCA | 0.0619 |
| AACGTGAT | 0.134 |
| GTTCGGGA | -0.176 |
| GTTAGTTA | 0.259 |
| GTATTGGA | 0.0535 |
| ACACGCAG | -0.199 |
| CACCATCG | -0.287 |
| AGGTAACA | 0.184 |
| TAACACGA | 0.153 |
| AAGGGAAT | 0.0936 |
| CTTCAAAA | 0.259 |
| GAAGCTCA | -0.137 |
| ACGCCTGC | -0.282 |
| AGACTTAT | 0.217 |
| AAGGTAAA | 0.237 |
| GCAATTTA | 0.23 |
| CACAGCCC | -0.318 |

Set 2
Target: Hepatocyte nuclear factor 3-alpha (Foxa1, Mus musculus, UniProt P35582, residues 1-468, full length assumed)
Technique: EMSA with sequencing
Form: double-stranded DNA, one strand shown
Sample: in vitro
Concentration: 10 and 20 nM
Notes: whole designed probe, mean of two concentrations, ends assumed
Relative to: negative control set to 0
Reading: higher = stronger binding
Construct (chain): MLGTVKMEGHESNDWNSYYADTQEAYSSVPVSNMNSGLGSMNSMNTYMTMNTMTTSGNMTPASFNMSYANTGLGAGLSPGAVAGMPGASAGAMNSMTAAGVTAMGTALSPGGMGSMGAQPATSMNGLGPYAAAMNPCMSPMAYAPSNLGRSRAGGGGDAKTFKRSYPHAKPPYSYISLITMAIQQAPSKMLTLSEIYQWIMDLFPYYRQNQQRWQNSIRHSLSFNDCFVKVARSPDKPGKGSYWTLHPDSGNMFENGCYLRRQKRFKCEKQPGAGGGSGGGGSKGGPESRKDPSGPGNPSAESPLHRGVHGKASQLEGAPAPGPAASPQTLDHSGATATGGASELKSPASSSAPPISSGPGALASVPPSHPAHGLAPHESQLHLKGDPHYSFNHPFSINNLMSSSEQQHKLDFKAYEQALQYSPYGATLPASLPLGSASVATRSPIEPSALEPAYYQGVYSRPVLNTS
| Strand | normalised bound fraction [ratio] |
| --- | --- |
| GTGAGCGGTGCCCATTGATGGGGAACATCCACGAACCTGGCCCTGTCTGGTAACCACAGTGAACCATCGCAAGATACAGCACTATGTGCCCAGTTGGGCTGGTAATGTCACACAAATGTGTCAACACTGGTAATGACTCACGGACACGGAAGTGTACTTGTTTTTGGAGAGGGACTAGACCTTCATCCTTGAGGTGAAGAAGATTTTCTCTCCAGGGTGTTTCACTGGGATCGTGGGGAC | 0.0531 |
| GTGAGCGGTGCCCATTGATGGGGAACATATACCTTTATTGCATATTAACAATTTCATAATGTGTCAAATTTATCCCAAACTTCTAGCTAAAATCTTTAAGAGTGCTGTTAAAGATAATGTAAACAAGCACTATTTTCTTTACTTAGCGAACAAGATTGGCCGAGTAATGTCAATTATTTTGCAACATGTTCCATTAATCAGTATACATTAAGTATCACTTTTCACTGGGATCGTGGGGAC | 0.308 |
| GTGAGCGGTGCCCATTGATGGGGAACCACTCATAGTCTTGCTATCCTTCATATACAGAGATGACCCTCCCAAGCCTAAAATCAACAGGGGGAGGCATAGAGCTGTCCTTCTGGCTCTAATGTTTGCTTTACCATCATCTTAGTCCATCCACGCCCATGCATGTGAGAGCCAGTGTGAAGTGAGCAGAATATGGCATAAGTATGGAGTCATACATCCTTATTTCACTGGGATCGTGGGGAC | 0.381 |
| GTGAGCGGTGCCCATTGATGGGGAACATCTTCCCCCTCTTCCTTGCCCCACCAGCTCACCTTCCCGGGTTATTTGCAGATAAAAAGTAGAATAAAGCCGGCATTCGTTAACCCTCTTCTGGCGCAAACTGCTGTTTGCTCTGGATGAATCATGGTCCTTTGGCGACGCCAGGCTCCGGGAGAGCAAAGCACCGTGTCAGGGCCATGATCCGGGGTGGCCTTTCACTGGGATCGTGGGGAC | 0.245 |
| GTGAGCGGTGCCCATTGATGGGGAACTCAGGTCAGAGCAGGTGACCAGGGGTGACTCAGGATGGAGCAGGTGACCAGAGGAATAGAGGTGAACTACTGATTAGAACTGGTGGAAAAGGTAGATTACTGAAACTAGAGGCGAGGAGAACGAGGAAGCTAGACTTTAGAGCGCAAAGAACCGAGCATACTGACATACTGATTCTTTGAAGAGAAATTTAGATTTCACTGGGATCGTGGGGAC | -0.0541 |
| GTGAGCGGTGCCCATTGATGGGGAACGTAAAAACTTATTACTAATCATTGTTTCTCAATTTTGACTTAAGGGCTATTTGTTCAGAATAAAATATATGGAACTAAGGCCAAGAATTTGTATGTTTACCTAATGTGACTTGTGTTTGCCAATGTTTGAGAACCTCAGTGTTTGTCAAGAGGCCTAGGAATTCATAAACATAACAAAAGTAACTGGCTTTACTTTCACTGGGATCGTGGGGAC | 0.405 |
| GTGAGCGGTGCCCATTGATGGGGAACGAAATGCCTCGCTTTTATTGTGAAGTTTTGCCTGCATTTTCTCCCTAACATTTATTTATTGCGGTGTCATTTACCGCTATGTGCAGAGATAATGTTTACTGAACGATCAACTGTCAACACTGTCTTGGCTGATAACCAGGAAGGAGCAAGCTTCCAAGTGCGTCACATCCTAATGTTGAAGGCTGCTGAGCACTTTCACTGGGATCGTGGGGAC | 0.321 |
| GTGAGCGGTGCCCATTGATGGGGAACAAGAAAGAAATTTCCCATCCAGATTACAAAATTATTCCTGGTCAAAGGGGCCTTTATAAATGCAATTTCCTAATCCAATCAAAAGACCACAAAAGTAATCTGGGAATTTCTCTGCTTTGGTTTAAAATTGTTTGTTTAAAATTACATGTGTGTGTGTAGGTATATACACATATATAAATATATTATAGACACTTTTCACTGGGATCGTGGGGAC | 0.304 |

Set 3
Target: ABI1, truncated, D143A, DHFR fusion (Arabidopsis thaliana, UniProt P49597)
Technique: DHFR PCA, dose-response
Sample: yeast
Notes: Hill fit, not affinity
With: (+)-ABA, dose series
Reading: lower = more sensitive
Starting sequence: PYL1, truncated, DHFR fusion (Arabidopsis thaliana, UniProt Q8VZS8); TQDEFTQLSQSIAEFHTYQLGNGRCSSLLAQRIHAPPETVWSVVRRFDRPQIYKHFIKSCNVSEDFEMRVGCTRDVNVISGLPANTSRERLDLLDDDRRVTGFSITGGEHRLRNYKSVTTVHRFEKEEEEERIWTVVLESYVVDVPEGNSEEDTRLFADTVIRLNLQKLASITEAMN
| Variant | ABA EC50 |
| --- | --- |
| K126S | 2.08 µM |
| T39V | 3.34 µM |
| S87L | 0.686 µM |
| N61K | 3.2 µM |
| N22E | 3.71 µM |
| D159W | 1400 µM |
| S9Q | 7.2 µM |

Set 4
Target: CCND3, cyclin fold, Cln2 fusion (human)
Technique: yeast growth competition, sequencing
Sample: yeast
Notes: weak parent motif
Relative to: not given
Reading: higher = stronger binding
Starting sequence: ORC1 docking peptide (human); PRARKRLELGNLG; partner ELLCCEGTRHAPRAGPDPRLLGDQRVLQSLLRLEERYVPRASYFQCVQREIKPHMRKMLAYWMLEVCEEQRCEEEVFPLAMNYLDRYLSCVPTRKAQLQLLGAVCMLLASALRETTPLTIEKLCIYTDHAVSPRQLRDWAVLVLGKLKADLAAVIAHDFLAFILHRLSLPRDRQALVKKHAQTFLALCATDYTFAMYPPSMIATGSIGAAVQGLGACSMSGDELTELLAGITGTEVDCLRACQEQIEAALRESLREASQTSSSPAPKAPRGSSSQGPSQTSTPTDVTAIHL
| Variant | normalised enrichment score |
| --- | --- |
| L12A | 0.151 |
| K5G | 0.109 |
| P1S | 0.032 |
| E8S | 0.128 |
| L7P | -0.00242 |
| L7K | 0.201 |
| R2I | 0.129 |
| R4V | 0.132 |
| R6L | 0.244 |
| G10M | 0.148 |
| R2E | 0.188 |
| R4C | 0.0377 |
| A3H | 0.165 |
| L7R | 0.205 |
| L7D | 0.148 |
| L7A | 0.0305 |
| R4E | 0.115 |
| P1W | 0.19 |
| G10A | 0.102 |
| L9F | 0.302 |
| G10P | 0.0824 |
| G10Y | 0.336 |
| A3W | 0.115 |
| R4Q | 0.103 |
| A3R | 0.191 |

Set 5
Target: RNA binding protein fox-1 homolog 2, RRM domain, GST-SBP tag (RBFOX2, Homo sapiens, UniProt O43251-10, residues 100-194)
Technique: RNA Bind-n-Seq
Form: RNA
Sample: in vitro
Concentration: 365 nM
Notes: natural RNA segment, single round, ends assumed
Relative to: no-protein control
Reading: higher = stronger binding
Residues (chain): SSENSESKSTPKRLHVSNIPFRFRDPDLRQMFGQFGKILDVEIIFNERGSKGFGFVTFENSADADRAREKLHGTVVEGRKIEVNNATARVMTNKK
| Strand | RBNS enrichment (R) |
| --- | --- |
| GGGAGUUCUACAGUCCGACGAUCUCUCAUUACUUAUAGUUUAUCUAUAUUAAACAAAUUUAAUUGCAUUUUAAAGCAUUCUUUGAUACUGUUGCUUUUGCAAUAAAUAUGGAUAAUCUUGGUUAUAAGGGAGUUGGAAUUCUCGGGUGCCAA | 0.56 |
| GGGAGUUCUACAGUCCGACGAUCCACAACACUCAUCUGUCAAACACCAAGCACUCUCAGCCUCCCCGCCUUCAGCUGUCAGCUUUCUGGGGCUAACUUCUCUGCCUUUGUGGUUGGAGGCCUGAGGCCUCUUGUGGAAUUCUCGGGUGCCAA | 0.421 |
| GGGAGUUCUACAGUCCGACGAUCAGUUUUCAGAUUGGAGAUUCAAGAUUUGUUCCACUUUACAAGCAAGAGGAAAAAAAAGCAACCUUCAAACUAAUUCUCCAUGGGGGCUCUCCAUGUUACCCUCCACUCCUUGGAAUUCUCGGGUGCCAA | 0.37 |
| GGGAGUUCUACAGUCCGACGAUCUGGUUUUCUUUGCUUUAGCUCGAGAAAGCGGCAGCAAACAGAAUACAGAAUGAAUGGAGACUGGGUUCCUGAGAAAAGCUUUGAACACACGGGACUACAGAUGGUGCCCUUGGAAUUCUCGGGUGCCAA | 0.734 |
| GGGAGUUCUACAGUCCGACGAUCUUUGCCUCAAAAUGUCCCUGUUUGAAAGAUUAGCACAAAAGUCUUGAUAGCACAACACAAAUUCCAUCCAAGAGGAGAAUCUUCCCCAGGGUUUAGUCCUGGGGCUGGCAUGGAAUUCUCGGGUGCCAA | 2.36 |
| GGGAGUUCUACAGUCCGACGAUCCUAUAAAAGAAAUGCUUGAGAGGUUGACUAUAAUGGAUAUGUCACAGGUAUAAAACAGUUGUUUUCUAAAAACAUGCAUUUAGUAUGGCAUUCUCUUUUAGCAACUGAAUUGGAAUUCUCGGGUGCCAA | 0.701 |
| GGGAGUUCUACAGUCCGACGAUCGCCUGGUCUCACCGUGUGCAGCCUUGUGGUUUAUGCUUAAAUGUACAUUUUCCUGCUGGUAAAAGGAGAAACUGAGAGGUGUCCUGCAGACCGGCUGACCACUCCUUUUGUGGAAUUCUCGGGUGCCAA | 0.382 |
| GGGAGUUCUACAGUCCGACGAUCUCUCUCCUGGGCAGGAAAGCCCUCCUAGGGGAGAUUUCCAGGAGAUGUGGCCUUGACGAGUUUCUUCUCCUCCUGAUUCAAUGGAAUCUCCCAUAAACACCAAAUGAUUGUGGAAUUCUCGGGUGCCAA | 0.589 |
| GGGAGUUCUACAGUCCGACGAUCCACAGUCAUGAACUUUUGUUUUUCUCCCUUUUUUAGUUUUUUCAAAGAUGGGGGGAAGGGAAAUAUGAGCCUUUGUUGCUUUCAAAACGAGAACAGUUUGUACAAGUUUUUGGAAUUCUCGGGUGCCAA | 0.556 |
| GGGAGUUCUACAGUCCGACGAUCAGGGAAACGUGCCCUCUGUUUGAUCCUUGUUUUGUGACAUUUUUUUUUUUUUUUUUUUUACUCAAAGUUAACCUACCUGUAACUUUUUAAAAACUUGUAAAAUAACUGACUGGAAUUCUCGGGUGCCAA | 0.948 |
| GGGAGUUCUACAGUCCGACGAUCUAAUUAGAGCACAGGGAGCAGGGCAGCUGUUAUUCCUGUUUUACCAAGUCAAGGCUUAGGGAAGUUCAGCCACCUGCUUAGAUGAUAUAUCAAGGUGGCAGUGGAAGGGGUGGAAUUCUCGGGUGCCAA | 0.438 |
| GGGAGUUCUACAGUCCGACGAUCUCUUUGCAGCUGUCAGUUGCUCUUUCAACUCUAGGAUCCAUCUUUGGACCAGAAGCCUGGUCUGUGCCUAGGAUGACACUGGCCCCAGAGAUGCUAGAGUCGACUGCACUUGGAAUUCUCGGGUGCCAA | 0.203 |

Repeated from above (set 3):
| Variant | ABA EC50 |
| --- | --- |
| K126S | 2.08 µM |
| T39V | 3.34 µM |
| S87L | 0.686 µM |
| N61K | 3.2 µM |
| N22E | 3.71 µM |
| D159W | 1400 µM |
| S9Q | 7.2 µM |
